{"data": "Assay results from different studies", "note": "Each numbered part is a random draw from the data of one study; scales do not carry over between parts. “And” joins repeats or separate records; there may be more than shown.", "UniProt Q2M2I8, sequence (whole entry, looked up)": "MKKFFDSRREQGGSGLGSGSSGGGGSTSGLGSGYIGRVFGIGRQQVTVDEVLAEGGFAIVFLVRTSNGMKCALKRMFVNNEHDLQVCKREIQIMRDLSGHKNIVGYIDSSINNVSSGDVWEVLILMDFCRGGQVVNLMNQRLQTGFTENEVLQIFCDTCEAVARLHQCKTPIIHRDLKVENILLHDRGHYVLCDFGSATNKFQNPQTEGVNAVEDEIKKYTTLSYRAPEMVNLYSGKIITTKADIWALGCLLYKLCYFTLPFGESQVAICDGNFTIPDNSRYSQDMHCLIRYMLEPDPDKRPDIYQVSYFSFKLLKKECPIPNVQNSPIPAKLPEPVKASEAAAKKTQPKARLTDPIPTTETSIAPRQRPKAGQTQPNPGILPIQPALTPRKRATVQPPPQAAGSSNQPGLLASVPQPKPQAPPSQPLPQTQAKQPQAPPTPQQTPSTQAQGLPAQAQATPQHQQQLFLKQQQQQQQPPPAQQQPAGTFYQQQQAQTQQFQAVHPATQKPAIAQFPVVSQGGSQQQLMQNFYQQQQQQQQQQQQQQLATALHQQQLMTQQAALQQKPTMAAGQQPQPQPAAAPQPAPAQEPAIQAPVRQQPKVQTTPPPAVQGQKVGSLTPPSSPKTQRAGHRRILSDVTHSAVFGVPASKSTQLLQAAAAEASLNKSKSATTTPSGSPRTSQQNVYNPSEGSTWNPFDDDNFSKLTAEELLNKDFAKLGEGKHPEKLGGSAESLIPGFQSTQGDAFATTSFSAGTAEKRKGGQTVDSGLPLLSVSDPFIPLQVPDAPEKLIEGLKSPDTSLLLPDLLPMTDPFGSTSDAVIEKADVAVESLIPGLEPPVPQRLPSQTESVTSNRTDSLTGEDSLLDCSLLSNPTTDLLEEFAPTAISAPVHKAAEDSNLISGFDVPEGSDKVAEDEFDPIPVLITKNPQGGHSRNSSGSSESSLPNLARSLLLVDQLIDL"}
{"data": "Block 1", "target": "DNA polymerase theta, ATPase domain (POLQ, Homo sapiens, UniProt O75417)", "read-out": "enzyme activity", "mode": "inhibitor", "tested at": "77 µM", "reference": "untreated", "UniProt O75417, sequence (whole entry, unmodified, looked up)": "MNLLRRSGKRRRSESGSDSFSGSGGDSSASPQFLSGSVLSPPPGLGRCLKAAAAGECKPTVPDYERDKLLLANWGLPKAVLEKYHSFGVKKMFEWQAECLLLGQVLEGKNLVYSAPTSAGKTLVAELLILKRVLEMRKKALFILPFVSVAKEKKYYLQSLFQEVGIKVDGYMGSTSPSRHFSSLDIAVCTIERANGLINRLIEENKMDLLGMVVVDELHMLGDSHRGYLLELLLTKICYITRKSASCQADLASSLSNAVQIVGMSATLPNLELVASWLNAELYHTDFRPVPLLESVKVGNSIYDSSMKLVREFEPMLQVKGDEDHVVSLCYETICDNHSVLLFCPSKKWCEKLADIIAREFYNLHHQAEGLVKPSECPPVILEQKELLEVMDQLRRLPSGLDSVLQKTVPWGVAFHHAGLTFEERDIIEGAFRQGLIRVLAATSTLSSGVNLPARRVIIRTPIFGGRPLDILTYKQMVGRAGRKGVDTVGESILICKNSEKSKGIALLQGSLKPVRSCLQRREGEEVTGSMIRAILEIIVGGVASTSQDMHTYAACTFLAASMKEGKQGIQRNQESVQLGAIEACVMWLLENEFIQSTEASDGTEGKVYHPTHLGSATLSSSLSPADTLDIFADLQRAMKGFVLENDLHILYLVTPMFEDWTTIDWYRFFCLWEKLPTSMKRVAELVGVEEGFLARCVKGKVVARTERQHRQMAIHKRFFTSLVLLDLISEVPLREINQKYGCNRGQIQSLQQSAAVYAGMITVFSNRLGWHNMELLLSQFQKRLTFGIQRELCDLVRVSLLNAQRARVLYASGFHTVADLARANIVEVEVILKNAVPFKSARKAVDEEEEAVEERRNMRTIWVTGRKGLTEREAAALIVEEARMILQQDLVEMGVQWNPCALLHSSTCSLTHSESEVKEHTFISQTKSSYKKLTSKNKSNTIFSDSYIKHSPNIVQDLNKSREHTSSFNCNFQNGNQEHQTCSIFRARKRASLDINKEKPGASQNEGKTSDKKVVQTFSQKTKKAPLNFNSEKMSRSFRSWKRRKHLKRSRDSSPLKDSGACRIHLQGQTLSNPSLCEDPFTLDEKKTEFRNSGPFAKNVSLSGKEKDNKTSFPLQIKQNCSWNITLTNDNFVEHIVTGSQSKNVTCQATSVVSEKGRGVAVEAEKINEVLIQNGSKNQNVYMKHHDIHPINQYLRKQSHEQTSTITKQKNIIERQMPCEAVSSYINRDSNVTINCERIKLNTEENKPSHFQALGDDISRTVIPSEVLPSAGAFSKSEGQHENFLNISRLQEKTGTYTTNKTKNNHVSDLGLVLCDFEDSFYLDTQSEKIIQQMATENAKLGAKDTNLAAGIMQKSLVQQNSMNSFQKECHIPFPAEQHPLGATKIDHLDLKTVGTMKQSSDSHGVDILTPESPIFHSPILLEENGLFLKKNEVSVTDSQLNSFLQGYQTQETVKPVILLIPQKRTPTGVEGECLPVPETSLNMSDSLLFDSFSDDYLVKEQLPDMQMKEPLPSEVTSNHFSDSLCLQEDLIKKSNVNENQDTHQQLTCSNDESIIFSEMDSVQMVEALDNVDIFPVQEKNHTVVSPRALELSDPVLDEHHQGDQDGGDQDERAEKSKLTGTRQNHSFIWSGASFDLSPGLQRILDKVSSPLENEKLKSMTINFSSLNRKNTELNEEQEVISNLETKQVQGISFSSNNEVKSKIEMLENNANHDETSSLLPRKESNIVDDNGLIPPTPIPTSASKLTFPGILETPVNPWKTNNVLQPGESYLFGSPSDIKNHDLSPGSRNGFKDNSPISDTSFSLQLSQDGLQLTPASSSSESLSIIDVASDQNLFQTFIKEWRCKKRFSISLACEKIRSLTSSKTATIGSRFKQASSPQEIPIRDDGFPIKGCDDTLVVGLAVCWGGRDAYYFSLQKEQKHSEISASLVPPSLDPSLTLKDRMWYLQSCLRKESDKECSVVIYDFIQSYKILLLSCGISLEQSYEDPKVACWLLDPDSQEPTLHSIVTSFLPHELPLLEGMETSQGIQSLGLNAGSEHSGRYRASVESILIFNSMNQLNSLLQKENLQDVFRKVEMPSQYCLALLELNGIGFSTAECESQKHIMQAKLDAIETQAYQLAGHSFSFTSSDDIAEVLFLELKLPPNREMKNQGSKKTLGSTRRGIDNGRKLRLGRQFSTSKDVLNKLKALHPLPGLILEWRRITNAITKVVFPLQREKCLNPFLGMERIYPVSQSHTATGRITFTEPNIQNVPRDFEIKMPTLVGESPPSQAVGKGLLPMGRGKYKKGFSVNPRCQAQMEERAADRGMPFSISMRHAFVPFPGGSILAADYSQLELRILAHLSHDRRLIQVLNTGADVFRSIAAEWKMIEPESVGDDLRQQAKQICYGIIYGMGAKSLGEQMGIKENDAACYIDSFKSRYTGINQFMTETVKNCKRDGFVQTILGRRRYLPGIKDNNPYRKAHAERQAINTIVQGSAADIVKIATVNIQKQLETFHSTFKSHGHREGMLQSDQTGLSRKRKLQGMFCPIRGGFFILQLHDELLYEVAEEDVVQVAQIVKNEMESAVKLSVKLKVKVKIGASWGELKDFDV"}
{"remaining activity": "102% and 100%", "Compound": "NS(=O)(=O)c1cc2c(cc1Cl)NC(C(Cl)Cl)NS2(=O)=O (stereo not drawn)"}
{"remaining activity": "103%", "Compound": "CC(C)(C)NS(=O)(=O)c1cncc(-c2cc(F)c3nc(N)nn3c2)c1"}
{"remaining activity": "94.6%", "Compound": "O=C(NC(Cc1cc(=O)[nH]c2ccccc12)C(=O)O)c1ccc(Cl)cc1 (stereo not drawn)"}
{"remaining activity": "100%", "Compound": "OCCN1C[C@H](O)[C@@H](O)[C@H](O)[C@H]1CO"}
{"remaining activity": "102%", "Compound": "CCCC(=O)O[C@]1(C(=O)COC(C)=O)CC[C@H]2[C@@H]3C[C@H](F)C4=CC(=O)C=C[C@]4(C)[C@@]3(F)[C@@H](O)C[C@@]21C"}
{"remaining activity": "113%", "Compound": "Cn1nc2c3c(cccc31)C(=O)c1ccccc1-2"}
{"data": "Block 2", "host": "human", "sample": "microsomes or S9", "tested at": "2 µM", "time": "0.5 h"}
{"remaining compound [%]": 61.5, "SMILES": "Cc1ccccc1N(CC(=O)N1CCN(C/C=C/c2ccccc2)CC1)S(C)(=O)=O"}
{"remaining compound [%]": "> 99", "SMILES": "COc1cc(=O)n(C)cc1C(=O)N1CCN(c2ccc(C(F)(F)F)cn2)CC1"}
{"remaining compound [%]": 71.3, "SMILES": "CC(C)CCn1c(N)nc2c1c(=O)nc(O)n2C"}
{"remaining compound [%]": 0.507, "SMILES": "COC(=O)c1ccc(S(C)(=O)=O)c(COCCn2cncn2)c1Cl"}
{"remaining compound [%]": 97.3, "SMILES": "CCOC(=O)COc1ccc(-c2noc(-c3ccc(OCc4ccc(Br)cc4)cc3)c3cccc2-3)cc1"}
{"remaining compound [%]": 48.1, "SMILES": "COc1ccc(/C=N/n2cnnc2)cc1Br"}
{"remaining compound [%]": 58.1, "SMILES": "COc1cc(=O)[nH]cc1C(=O)N1CCCC1C1CCCCC1 (stereo not drawn)"}
{"data": "Block 3", "target": "Tyrosine-protein kinase JAK2 (JAK2, Homo sapiens, UniProt O60674)", "read-out": "enzyme activity", "mode": "inhibitor", "tested at": "0.5 µM", "reference": "control", "UniProt O60674, sequence (whole entry, looked up)": "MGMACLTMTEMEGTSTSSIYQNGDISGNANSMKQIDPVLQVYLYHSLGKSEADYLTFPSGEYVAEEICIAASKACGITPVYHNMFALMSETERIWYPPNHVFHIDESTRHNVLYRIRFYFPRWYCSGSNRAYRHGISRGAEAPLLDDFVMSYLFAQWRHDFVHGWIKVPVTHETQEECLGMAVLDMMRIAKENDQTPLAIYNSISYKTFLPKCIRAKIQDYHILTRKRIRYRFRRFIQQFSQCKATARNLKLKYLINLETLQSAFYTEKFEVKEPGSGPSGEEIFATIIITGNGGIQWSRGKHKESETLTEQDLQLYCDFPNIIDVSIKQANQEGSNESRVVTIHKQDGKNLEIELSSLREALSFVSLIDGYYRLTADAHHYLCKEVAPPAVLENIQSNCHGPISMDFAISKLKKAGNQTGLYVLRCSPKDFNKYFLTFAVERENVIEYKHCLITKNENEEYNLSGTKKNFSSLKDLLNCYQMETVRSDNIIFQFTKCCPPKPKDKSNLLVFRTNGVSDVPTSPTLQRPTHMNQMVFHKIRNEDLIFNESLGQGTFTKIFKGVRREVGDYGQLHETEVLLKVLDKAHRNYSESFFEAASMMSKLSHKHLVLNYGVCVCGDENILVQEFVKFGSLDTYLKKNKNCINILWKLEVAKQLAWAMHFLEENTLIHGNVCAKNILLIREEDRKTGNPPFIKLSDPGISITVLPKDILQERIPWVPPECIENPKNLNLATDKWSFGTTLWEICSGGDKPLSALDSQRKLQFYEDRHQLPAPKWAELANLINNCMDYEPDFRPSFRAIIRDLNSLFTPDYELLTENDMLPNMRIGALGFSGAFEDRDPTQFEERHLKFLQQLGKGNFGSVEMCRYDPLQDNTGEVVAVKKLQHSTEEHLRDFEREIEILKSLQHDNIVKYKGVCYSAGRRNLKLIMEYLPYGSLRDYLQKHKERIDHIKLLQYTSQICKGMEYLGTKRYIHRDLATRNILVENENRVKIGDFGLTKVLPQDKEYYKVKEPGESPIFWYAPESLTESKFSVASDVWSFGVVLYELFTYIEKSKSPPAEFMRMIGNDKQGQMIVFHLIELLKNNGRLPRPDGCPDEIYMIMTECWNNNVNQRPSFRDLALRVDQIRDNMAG"}
{"remaining activity [%]": 99.7, "Compound": "N#C/C(=C(/N)SC1C=CC=CC1)c1cccc(C(O)c2ccncc2)c1 (stereo not drawn)"}
{"remaining activity [%]": 103, "Compound": "c1cc(-c2cnn3cc(-c4ccc(OCCN5CCCCC5)cc4)cnc23)ccn1"}
{"remaining activity [%]": 106, "Compound": "N#CC(c1ccnc(NCCc2cccnc2)n1)c1nc2ccccc2s1 (stereo not drawn)"}
{"remaining activity [%]": 98.9, "Compound": "FC(F)(F)c1ccc(/C=C/c2nc(COc3ccc(CCCCn4ccnn4)cc3)co2)cc1"}
{"remaining activity [%]": 104, "Compound": "NC(=O)c1cccc(-c2cc(Nc3ccc(OC(F)(F)F)cc3)ncn2)c1"}
{"remaining activity [%]": 77.8, "Compound": "CCCCc1c(-c2ccc(O)cc2)[nH]c2nccnc12"}
{"remaining activity [%]": 82.6, "Compound": "O=C1c2ccccc2-c2nc3nnnn3nc21"}
{"data": "Single results of other studies"}
{"target": "AP2-associated protein kinase 1 (AAK1, Homo sapiens, UniProt Q2M2I8)", "test": "KINOMEscan", "setting": "1 µM", "scale": "reference: control", "quantity": "remaining binding", "result": "91%", "Structure (SMILES)": "COc1ccc2c(c1)O[C@H](c1ccc(OC)c(OC)c1)C[C@@H]2NC(=O)C1(c2ccc3c(c2)OC(F)(F)O3)CC1 (single isomer, unassigned)"}
